{"data": "Assay results collected from several papers", "note": "A part holds a random share of what one study measured. Several values in a cell are separate wells, animals, samples, runs or records.", "chain of UniProt Q9H4B4 (whole entry, looked up)": "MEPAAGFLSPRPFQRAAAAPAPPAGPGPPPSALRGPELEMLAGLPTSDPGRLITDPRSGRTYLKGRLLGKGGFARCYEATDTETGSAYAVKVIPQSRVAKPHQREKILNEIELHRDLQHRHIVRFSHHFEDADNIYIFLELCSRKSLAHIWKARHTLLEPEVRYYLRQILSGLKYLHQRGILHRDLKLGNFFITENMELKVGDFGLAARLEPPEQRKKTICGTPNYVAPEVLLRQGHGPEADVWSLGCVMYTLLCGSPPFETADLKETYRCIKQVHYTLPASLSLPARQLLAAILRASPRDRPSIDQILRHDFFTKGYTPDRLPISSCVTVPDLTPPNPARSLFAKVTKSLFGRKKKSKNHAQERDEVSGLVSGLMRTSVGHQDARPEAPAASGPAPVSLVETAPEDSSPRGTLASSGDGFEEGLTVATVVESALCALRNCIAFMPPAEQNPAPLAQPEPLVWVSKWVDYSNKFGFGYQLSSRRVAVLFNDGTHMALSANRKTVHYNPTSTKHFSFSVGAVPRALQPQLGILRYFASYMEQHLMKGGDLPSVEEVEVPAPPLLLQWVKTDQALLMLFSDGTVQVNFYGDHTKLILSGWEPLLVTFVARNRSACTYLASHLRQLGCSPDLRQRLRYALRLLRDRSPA", "chain of UniProt Q5VT25 (whole entry, looked up)": "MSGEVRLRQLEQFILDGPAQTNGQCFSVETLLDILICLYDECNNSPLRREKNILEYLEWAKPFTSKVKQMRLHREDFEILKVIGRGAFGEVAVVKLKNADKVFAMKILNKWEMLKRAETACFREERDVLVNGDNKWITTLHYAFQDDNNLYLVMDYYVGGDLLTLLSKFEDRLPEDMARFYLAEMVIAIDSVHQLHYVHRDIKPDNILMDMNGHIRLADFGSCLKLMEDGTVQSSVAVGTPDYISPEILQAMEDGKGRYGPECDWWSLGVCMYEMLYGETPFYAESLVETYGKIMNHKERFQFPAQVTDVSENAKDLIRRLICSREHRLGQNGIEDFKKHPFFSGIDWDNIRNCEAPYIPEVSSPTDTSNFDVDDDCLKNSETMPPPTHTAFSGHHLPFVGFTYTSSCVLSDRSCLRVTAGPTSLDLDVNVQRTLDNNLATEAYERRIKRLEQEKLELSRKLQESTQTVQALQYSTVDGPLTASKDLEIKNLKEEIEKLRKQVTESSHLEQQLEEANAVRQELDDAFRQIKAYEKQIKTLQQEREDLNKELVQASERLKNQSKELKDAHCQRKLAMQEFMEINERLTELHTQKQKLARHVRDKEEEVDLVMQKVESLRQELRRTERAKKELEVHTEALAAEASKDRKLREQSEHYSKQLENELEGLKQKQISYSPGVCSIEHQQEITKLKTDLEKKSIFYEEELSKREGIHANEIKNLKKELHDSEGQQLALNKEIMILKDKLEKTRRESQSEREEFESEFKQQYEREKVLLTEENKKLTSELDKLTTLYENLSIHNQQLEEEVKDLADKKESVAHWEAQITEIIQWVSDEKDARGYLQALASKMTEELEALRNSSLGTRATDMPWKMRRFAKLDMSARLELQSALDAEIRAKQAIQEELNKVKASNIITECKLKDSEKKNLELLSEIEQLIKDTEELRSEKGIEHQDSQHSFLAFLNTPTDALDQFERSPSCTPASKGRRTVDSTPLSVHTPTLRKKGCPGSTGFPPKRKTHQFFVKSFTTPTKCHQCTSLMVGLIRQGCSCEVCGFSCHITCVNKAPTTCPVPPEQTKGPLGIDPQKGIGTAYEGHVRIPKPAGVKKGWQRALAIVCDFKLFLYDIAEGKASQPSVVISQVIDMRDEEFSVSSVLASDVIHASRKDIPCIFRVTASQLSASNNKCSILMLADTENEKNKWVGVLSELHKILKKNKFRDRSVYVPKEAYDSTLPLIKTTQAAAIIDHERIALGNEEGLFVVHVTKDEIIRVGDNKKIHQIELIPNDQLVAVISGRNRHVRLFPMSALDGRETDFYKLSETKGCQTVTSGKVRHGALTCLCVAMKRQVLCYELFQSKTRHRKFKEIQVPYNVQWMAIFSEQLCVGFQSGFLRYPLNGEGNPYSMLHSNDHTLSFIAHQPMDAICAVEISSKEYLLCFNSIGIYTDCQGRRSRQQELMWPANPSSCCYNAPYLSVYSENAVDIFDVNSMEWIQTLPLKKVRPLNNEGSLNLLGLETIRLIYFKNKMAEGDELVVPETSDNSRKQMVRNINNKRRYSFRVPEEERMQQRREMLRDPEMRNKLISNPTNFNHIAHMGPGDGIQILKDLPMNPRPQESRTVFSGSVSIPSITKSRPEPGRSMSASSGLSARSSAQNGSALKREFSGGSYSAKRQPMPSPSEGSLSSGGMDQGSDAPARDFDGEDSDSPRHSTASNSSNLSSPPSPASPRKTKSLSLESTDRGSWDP", "chain of UniProt P54753 (whole entry, looked up)": "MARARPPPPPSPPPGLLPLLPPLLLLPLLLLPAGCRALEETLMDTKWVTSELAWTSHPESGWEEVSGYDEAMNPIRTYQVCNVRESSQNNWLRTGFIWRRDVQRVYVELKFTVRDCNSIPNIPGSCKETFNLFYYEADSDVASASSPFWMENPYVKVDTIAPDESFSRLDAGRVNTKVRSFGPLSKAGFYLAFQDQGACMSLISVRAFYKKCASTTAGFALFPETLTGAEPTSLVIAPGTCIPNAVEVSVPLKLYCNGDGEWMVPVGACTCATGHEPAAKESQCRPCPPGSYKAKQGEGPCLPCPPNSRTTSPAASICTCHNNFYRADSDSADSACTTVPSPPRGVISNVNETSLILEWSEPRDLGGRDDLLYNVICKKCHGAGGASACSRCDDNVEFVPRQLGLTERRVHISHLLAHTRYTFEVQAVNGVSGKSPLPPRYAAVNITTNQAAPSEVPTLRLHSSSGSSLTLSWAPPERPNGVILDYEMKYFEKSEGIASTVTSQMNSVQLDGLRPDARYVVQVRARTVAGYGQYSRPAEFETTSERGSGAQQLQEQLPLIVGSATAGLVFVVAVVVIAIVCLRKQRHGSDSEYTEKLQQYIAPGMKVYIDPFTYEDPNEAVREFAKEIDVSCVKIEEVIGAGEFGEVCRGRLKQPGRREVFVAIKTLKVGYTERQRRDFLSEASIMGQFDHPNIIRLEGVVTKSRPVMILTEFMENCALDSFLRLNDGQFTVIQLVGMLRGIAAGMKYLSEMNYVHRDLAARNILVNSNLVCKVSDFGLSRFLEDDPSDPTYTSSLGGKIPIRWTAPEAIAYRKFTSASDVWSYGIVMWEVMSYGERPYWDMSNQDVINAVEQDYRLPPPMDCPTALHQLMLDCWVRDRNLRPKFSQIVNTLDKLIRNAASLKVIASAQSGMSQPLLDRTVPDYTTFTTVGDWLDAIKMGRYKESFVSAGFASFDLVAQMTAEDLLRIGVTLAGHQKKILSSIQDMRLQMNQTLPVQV", "chain of UniProt Q13705 (whole entry, looked up)": "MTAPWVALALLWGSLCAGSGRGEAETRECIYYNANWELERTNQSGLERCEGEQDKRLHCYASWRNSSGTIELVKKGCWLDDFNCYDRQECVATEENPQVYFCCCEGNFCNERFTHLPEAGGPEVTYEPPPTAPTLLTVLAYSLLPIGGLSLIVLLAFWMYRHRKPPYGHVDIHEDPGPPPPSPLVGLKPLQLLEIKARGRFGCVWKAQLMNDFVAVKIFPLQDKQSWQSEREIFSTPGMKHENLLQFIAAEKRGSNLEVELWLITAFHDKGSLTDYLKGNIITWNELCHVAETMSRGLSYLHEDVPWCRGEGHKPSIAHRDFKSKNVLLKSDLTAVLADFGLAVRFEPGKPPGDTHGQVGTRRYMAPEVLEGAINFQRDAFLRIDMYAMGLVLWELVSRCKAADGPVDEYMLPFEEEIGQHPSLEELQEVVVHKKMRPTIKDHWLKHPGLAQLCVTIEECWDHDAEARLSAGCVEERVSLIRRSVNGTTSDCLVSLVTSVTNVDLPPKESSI", "chain of UniProt O00141 (whole entry, looked up)": "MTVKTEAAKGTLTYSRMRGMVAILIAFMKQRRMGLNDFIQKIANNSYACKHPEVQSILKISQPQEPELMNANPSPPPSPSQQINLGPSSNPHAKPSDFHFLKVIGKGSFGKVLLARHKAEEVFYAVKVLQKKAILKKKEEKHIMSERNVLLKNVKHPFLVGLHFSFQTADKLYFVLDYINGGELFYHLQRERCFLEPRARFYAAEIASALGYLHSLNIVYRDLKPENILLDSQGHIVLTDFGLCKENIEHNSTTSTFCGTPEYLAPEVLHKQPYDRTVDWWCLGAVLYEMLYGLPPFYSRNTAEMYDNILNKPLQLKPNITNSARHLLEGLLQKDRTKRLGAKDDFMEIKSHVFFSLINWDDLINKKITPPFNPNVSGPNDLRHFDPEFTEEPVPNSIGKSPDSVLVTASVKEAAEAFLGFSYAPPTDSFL"}
{"data": "Sample 1", "target": "Signal transducer and activator of transcription 1-alpha/beta, full length (STAT1, Homo sapiens, UniProt P42224, residues 1-750)", "technique": "protein-binding microarray", "form": "hairpin DNA", "sample": "in vitro", "tested at": "not given", "setting": "whole hairpin DNA, median over replicate spots", "baseline": "not given", "direction": "higher = stronger binding", "constant ends, left off below": "GAGGCC … GGCCTCACACTCTTTCCCTACACG", "chain of UniProt P42224 (whole entry, looked up)": "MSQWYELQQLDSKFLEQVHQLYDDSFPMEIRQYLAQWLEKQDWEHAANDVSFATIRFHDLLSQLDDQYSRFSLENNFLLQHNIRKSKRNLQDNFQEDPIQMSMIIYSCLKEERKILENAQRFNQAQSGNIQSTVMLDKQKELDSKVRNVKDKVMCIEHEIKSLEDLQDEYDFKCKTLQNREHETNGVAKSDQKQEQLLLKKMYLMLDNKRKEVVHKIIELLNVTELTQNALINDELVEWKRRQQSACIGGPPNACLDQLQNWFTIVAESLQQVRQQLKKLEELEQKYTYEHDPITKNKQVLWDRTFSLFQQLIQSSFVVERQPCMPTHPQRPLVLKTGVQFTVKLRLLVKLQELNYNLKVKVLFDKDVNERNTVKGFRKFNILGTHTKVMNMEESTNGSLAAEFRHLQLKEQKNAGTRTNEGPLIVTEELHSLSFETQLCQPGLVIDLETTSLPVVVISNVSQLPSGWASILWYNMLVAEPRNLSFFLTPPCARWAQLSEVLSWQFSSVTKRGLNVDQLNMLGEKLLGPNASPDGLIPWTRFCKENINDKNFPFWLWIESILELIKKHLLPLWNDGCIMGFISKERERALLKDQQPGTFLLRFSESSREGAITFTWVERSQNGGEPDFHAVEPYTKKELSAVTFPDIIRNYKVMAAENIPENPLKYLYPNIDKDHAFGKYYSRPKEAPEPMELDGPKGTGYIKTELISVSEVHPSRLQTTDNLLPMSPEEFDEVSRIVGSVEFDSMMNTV"}
{"Strand": "TTTCCCGCGAGCCTCCTGGCTCGCGGGAAA", "median fluorescence [a.u.]": 941}
{"Strand": "TTTCCCGGAAGCCTCCTGGCTTCCGGGAAA (5mC at 29)", "median fluorescence [a.u.]": 11300}
{"Strand": "TTCTCCGGAAGCCTCCTGGCTTCCGGAGAA (5mC at 9)", "median fluorescence [a.u.]": 1270}
{"Strand": "CCTCCCGGAAGCCTCCTGGCTTCCGGGAGG", "median fluorescence [a.u.]": 1220}
{"Strand": "TTTCCCGCCAGCCTCCTGGCTGGCGGGAAA", "median fluorescence [a.u.]": 996}
{"Strand": "TTCACCGGAAGCCTCCTGGCTTCCGGTGAA", "median fluorescence [a.u.]": 1210}
{"Strand": "TTTCCCGGCAGCCTCCTGGCTGCCGGGAAA", "median fluorescence [a.u.]": 2730}
{"Strand": "TTTCCAGGAAGCCTCCTGGCTTCCTGGAAA", "median fluorescence [a.u.]": 6100}
{"data": "Sample 2", "SMILES": "CC(=O)N[C@@H](Cc1c[nH]c2ccccc12)C(=O)N[C@@H](CCC(=O)C=[N+]=[N-])C(=O)OC(C)C", "sample": "EL4 tumour", "dose": "dose not given", "baseline": "vehicle"}
{"refers to": "phenol sulfate", "host": "mouse, EL4 tumour-bearing", "log2 fold change": 1.49}
{"refers to": "erythronate*", "host": "mouse, EL4 tumour-bearing", "log2 fold change": -0.138}
{"refers to": "erythritol", "host": "mouse, EL4 tumour-bearing", "log2 fold change": 0.155}
{"technique": "metabolomics", "refers to": "guanosine 2'-monophosphate", "host": "mouse", "log2 fold change": 0.848}
{"data": "Sample 3", "organism": "Sarcocystis neurona", "read-out": "parasite growth", "tested at": "10 µM", "setting": "secondary screen"}
{"Structure (SMILES)": "CC#C[C@]1(O)CC[C@H]2[C@@H]3CCC4=CC(=O)CCC4=C3[C@@H](c3ccc(N(C)C)cc3)C[C@@]21C", "inhibition": "8.6%"}
{"Structure (SMILES)": "COc1ccc(CC2c3cc(OC)c(OC)cc3CC[N+]2(C)CCC(=O)OCCCCCOC(=O)CC[N+]2(C)CCc3cc(OC)c(OC)cc3C2Cc2ccc(OC)c(OC)c2)cc1OC (stereo not shown)", "inhibition": "-0.133%"}
{"Structure (SMILES)": "Cl.O=C1[C@H]2CCCC[C@H]2C(=O)N1CCCCN1CCN(c2nsc3ccccc23)CC1", "inhibition": "91.7%"}
{"Structure (SMILES)": "COc1cc(NC(C)CCCN)c2ncccc2c1 (stereo not shown)", "inhibition": "99%"}
{"data": "Sample 4", "Structure (SMILES)": "Cc1c(NC(=O)c2cc(C(N)=O)nc3cc(F)ccc23)c(C(F)(F)F)nn1Cc1ccc(C(C)(C)C)cc1", "read-out": "cell-free assay", "technique": "competition with immobilised ligand", "tested at": "1 µM"}
{"target": "MERTK (Homo sapiens, UniProt Q12866)", "remaining binding [%]": 86}
{"target": "CHEK1 (Homo sapiens, UniProt O14757)", "remaining binding [%]": 100}
{"target": "CDC42BPA (Homo sapiens, UniProt Q5VT25)", "remaining binding [%]": 100}
{"target": "TYRO3 (Homo sapiens, UniProt Q06418)", "remaining binding [%]": 100}
{"target": "SGK1 (Homo sapiens, UniProt O00141)", "remaining binding [%]": 100}
{"target": "ANKK1 (Homo sapiens, UniProt Q8NFD2)", "remaining binding [%]": 100}
{"target": "PI4KB (Homo sapiens, UniProt Q9UBF8)", "remaining binding [%]": 72}
{"target": "PIK3CA (Homo sapiens, UniProt P42336, E545K)", "remaining binding [%]": 100}
{"target": "EGFR (Homo sapiens, UniProt P00533, G719C)", "remaining binding [%]": 71}
{"target": "CSNK1G2 (Homo sapiens, UniProt P78368)", "remaining binding [%]": 100}
{"target": "BRAF (Homo sapiens, UniProt P15056)", "remaining binding [%]": 81}
{"target": "EPHB3 (Homo sapiens, UniProt P54753)", "remaining binding [%]": 100}
{"target": "LATS1 (Homo sapiens, UniProt O95835)", "remaining binding [%]": 100}
{"target": "ACVR2B (Homo sapiens, UniProt Q13705)", "remaining binding [%]": 100}
{"target": "BUB1 (Homo sapiens, UniProt O43683)", "remaining binding [%]": 100}
{"target": "PLK3 (Homo sapiens, UniProt Q9H4B4)", "remaining binding [%]": 94}
{"target": "PAK5 (Homo sapiens, UniProt Q9P286)", "remaining binding [%]": 100}
{"target": "SRPK3 (Homo sapiens, UniProt Q9UPE1)", "remaining binding [%]": 100}
{"data": "Sample 5", "cell line": "HaCaT", "tested at": "100 µM", "time": "36 h"}
{"SMILES": "COc1ccc([C@@H]2OC[C@H]3[C@@H]2CO[C@@H]3c2ccc(O[C@@H]3O[C@H](CO)[C@@H](O)[C@H](O)[C@H]3O)c(OC)c2)cc1OC", "viability": "87.8%"}
{"SMILES": "NCCCC[C@H](NC(=O)[C@@H]1CCCN1C(=O)[C@@H]1CSSC[C@H](N)C(=O)N[C@@H](Cc2ccccc2)C(=O)N[C@@H](Cc2ccccc2)C(=O)N[C@@H](CCC(N)=O)C(=O)N[C@@H](CC(N)=O)C(=O)N1)C(=O)NCC(N)=O", "viability": "88.6%"}
{"SMILES": "O=C(O)c1cc(O)c(O)c(O)c1", "viability": "11.9%"}
{"SMILES": "COc1cc(O)c(C(=O)Nc2nc(C(=O)NCCN(C(C)C)C(C)C)cs2)cc1OC", "viability": "93.1%"}
{"data": "Other studies, line by line"}
{"SMILES": "COc1c(O)cc2c(c1O)C(=O)c1c(cc(C)c(O)c1OC)C2=O", "test system": "human, microsomes or S9", "setting": "2 µM, 0.5 h", "endpoint": "remaining compound", "result": "> 99%"}
{"SMILES": "Ic1ccc(Nc2nc(NCCN3CCOCC3)nc(N3CCOCC3)n2)cc1", "tested on": "HEK293T ATF4-firefly luciferase reporter", "test": "integrated stress response, refers to: ATF4", "setting": "1 µM, with: ISRIB", "how to read": "baseline: DMSO", "endpoint": "reporter signal", "result": "85.1% and 68.9% and 61.6% and 70.3% and 91.7% and 88.4% and 70.1% and 81.2%"}
{"note": "Excerpt of the above (sample 4):"}
{"target": "CDC42BPA (Homo sapiens, UniProt Q5VT25)", "remaining binding [%]": 100}
{"target": "TYRO3 (Homo sapiens, UniProt Q06418)", "remaining binding [%]": 100}
{"target": "SGK1 (Homo sapiens, UniProt O00141)", "remaining binding [%]": 100}
